Assay results from different studies.
Parts stem from different laboratories: compare values within a part only. Substitutions count along the parent as printed.

Sample 1
Target: UBE2H UBC core domain (UniProt P62256)
Chain of UniProt P62256 (whole entry, looked up): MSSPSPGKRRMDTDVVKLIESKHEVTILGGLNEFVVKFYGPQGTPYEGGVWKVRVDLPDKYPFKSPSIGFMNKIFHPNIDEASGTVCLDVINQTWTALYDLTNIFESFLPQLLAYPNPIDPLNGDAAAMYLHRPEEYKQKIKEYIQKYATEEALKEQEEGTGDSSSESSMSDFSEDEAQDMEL
Technique: yeast two-hybrid
Sample: yeast
Setting: mostly zero background
Baseline: not given
Direction: higher = stronger interaction
B1: RNF17 RING domain (UniProt Q9BXT8); chain SQPWGAAEIQCTRCGRRVSRSSGHHCELQCGHAFCELCLLMTEECTTIICPDCEVATAVNTRQR
B2: TRIM47 RING domain (UniProt Q96LD4); chain MDGSGPFSCPICLEPLREPVTLPCGHNFCLACLGALWPHRGASGAGGPGGAARCPLCQEPFPDGLQLR
B3: TRIM28 RING domain (UniProt Q13263); chain GAEALELLEHCGVCRERLRPEREPRLLPCLHSACSACLGPAAPAAANSSGDGGAAGDGTVVDCPVCKQQCFSKDIVE
B4: RNF7 RING domain (UniProt Q9UBF6); chain AICRVQVMDACLRCQAENKQEDCVVVWGECNHSFHNCCMSLWVKQNNRCPLCQQDWVVQRIGK
B5: TRIM2 RING domain (UniProt Q9C040); chain VRQIDKQFLICSICLERYKNPKVLPCLHTFCERCLQNYIPAHSLTLSCPVCRQTSILPEKGV
B6: TRIM68 RING domain (UniProt Q6AZZ1); chain LVEAIVEEVACPICMTFLREPMSIDCGHSFCHSCLSGLWEIPGESQNWGYTCPLCRAPVQPRNLRP
| Molecule | lacZ reporter activity |
| --- | --- |
| GSEEEEIPFRCFICRQAFQNPVVTKCRHYFCESCALEHFRATPRCYICDQPTGGIFNPA (RNF113B RING domain (UniProt Q8IZP6)) | 0 |
| B1 (RNF17 RING domain) | 0 |
| B2 (TRIM47 RING domain) | 0 |
| B3 (TRIM28 RING domain) | 0 |
| FLSKVEETFQCICCQELVFRPITTVCQHNVCKDCLDRSFRAQVFSCPACRYDLGRSYAMQ (UHRF1 RING domain (UniProt Q96T88)) | 0 |
| B4 (RNF7 RING domain) | 0 |
| B5 (TRIM2 RING domain) | 0 |
| B6 (TRIM68 RING domain) | 0 |
| EIKDYKARLTCPCCNMRKKDAVLTKCFHVFCFECVKTRYDTRQRKCPKCNAAFGANDFHR (RNF20 RING domain (UniProt Q5VTR2)) | 0 |
| SNNDLASLFECPVCFDYVLPPILQCQSGHLVCSNCRPKLTCCPTCRGPLGSIRNLA (SIAH1 RING domain (UniProt Q8IUQ4)) | 0 |

Sample 2
Target: RING finger protein unkempt homolog, zinc fingers 1-6, GST-SBP tag (UNK, Homo sapiens, UniProt Q9C0B0, residues 30-357)
Chain of UniProt Q9C0B0 (30-357, looked up): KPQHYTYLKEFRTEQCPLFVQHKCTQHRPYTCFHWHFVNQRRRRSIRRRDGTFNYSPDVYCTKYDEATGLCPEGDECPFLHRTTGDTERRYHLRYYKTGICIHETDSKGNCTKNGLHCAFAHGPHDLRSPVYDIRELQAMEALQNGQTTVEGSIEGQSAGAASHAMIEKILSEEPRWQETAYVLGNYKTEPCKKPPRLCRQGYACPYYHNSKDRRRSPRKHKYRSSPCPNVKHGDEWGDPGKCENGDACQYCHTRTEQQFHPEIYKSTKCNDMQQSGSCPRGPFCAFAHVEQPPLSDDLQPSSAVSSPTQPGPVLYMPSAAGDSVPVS
Technique: RNA Bind-n-Seq
Form: RNA
Sample: in vitro
Concentration: not given
Setting: RNA with constant flanks, ends assumed
Baseline: input RNA pool
Direction: higher = stronger binding
Constant ends, left off below: GGGAGUUCUACAGUCCGACGAUC … CAACAGAGGAUUGAGCAUCA
| Strand | bound/input enrichment [ratio] |
| --- | --- |
| UUGUGCAUAUGAUGCUUGAGAUGGUUUUGCAGAUGCAGACAUCGCUGCAAGGUCAUUCUAACCGAGACAAGCGGUAUUUUAAACCUUUGAAAGGAAUGGAUGUAACUGUACGUUGGUACA | 0.164 |
| GAUGGUGCUGUCUUCUUUAACAAAGAAAGAACGAGGAAUAUUGUGAAAUUUGACUUGAGGACCCGAAUUAAGAGUGGCGAGGCCAUAAUUAACUAUGCCAACUACCAUGAUACCUCACCA | 0.11 |
| CAAGUCUAACAAUAUUUCCAUUUCUGAAAGGCCAGUGAAUGUCCUGCAGAAAAUGAGGUUACCCGACCUUUCCUCCAACCCAUCAAUUGAUGAAAGCCAGCUGAGCCUUAUAGCAGAUCU | 0.437 |
| GGUGAGAGCAUCAUGGUGGAACUUGCUGCUGGGCCUUUCGAGAAUGCUGAAAAGUUGCCAGCCGUUAUCAGGGUGCCAAAACUGAUGGGUUACUCAGUCAUGAGUGUAUGCUCCGUGCCU | 0.104 |
| CAUGAUCUUGUUACUGUGAUAUUUUAAAUAUCCACAGUACUCACUUUUUCCAAAUGAUCCCCGUAAUUGCCUAGAAAUAUCUUUCUCUUACCUGUUAUUUAUCAAUUUUUCCCAGUAUUU | 3.68 |
| UGGACUCACGUUGGACCUACUCCUGCGAUAACUAUUAAGGAAACAGUUGCCAACCACUUGCCGUUACAAAACCAAACCUGGGACAUACUUACUUCGCAGGUAUAAAGCCUCAGUUUUAAC | 0.27 |
| CUGGAAGGUUGUUGGCGCACGCGAUUGAAGCGGCGCACUCGGAGUAAACGCGGCUGGCGGCCGUACGUGUGUCUUUUUGCUGAGGGCAGUUAUGUUUCUCCAAUAUUACCUCAACGAGCA | 0.246 |

Sample 3
Target: CCNA2, cyclin fold, Cln2 fusion (human)
Technique: yeast growth competition, sequencing
Sample: yeast
Setting: strong parent motif
Baseline: not given
Direction: higher = stronger binding
Starting sequence: SAMHD1 docking peptide (human); ASKSRVQLFKDDP; partner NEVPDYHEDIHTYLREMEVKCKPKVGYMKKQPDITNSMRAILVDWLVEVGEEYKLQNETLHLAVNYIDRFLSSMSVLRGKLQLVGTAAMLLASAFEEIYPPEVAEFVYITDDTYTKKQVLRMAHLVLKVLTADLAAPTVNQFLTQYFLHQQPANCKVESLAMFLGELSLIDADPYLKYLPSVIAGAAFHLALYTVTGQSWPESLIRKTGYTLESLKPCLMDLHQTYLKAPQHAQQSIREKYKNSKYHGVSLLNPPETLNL
| Substitution | normalised enrichment score |
| --- | --- |
| ASKSRVCLFKDDP [Q7C] | 3.39 |
| ASYSRVQLFKDDP [K3Y] | 0.864 |
| ASKSRPQLFKDDP [V6P] | -0.259 |
| ASKDRVQLFKDDP [S4D] | -0.152 |
| ASKSRYQLFKDDP [V6Y] | 0.37 |
| ASKSRVPLFKDDP [Q7P] | -0.0316 |
| ASKGRVQLFKDDP [S4G] | 1.29 |
| ASKSRIQLFKDDP [V6I] | 2.85 |
| ASKSRVQLFSDDP [K10S] | 1.8 |
| ASKSQVQLFKDDP [R5Q] | 0.191 |
| ASTSRVQLFKDDP [K3T] | 1.63 |
| ASKSRVQQFKDDP [L8Q] | -0.195 |
| ASCSRVQLFKDDP [K3C] | 1.47 |
| ASPSRVQLFKDDP [K3P] | 0.642 |
| ASLSRVQLFKDDP [K3L] | 1.28 |
| ASKSGVQLFKDDP [R5G] | 0.0635 |
| ASKSWVQLFKDDP [R5W] | 1.32 |
| ASKIRVQLFKDDP [S4I] | 4.94 |

Sample 4
Target: Runt-related transcription factor 1, full length (RUNX1, Homo sapiens, UniProt Q01196-8, residues 1-480)
Technique: protein-binding microarray
Form: hairpin DNA
Sample: in vitro
Concentration: not given
Setting: whole hairpin DNA, median over replicate spots
Baseline: not given
Direction: higher = stronger binding
| Strand | median fluorescence [a.u.] |
| --- | --- |
| CTCAGTTCTGTGGGCTGGACTCCTGTCCAGCCCACAGAACTGAGACACTC (5mC at 32) | 1750 |
| GAGGCCTGTTGCGGTGGGCCTCCTGGCCCACCGCAACAGGCCTCACACTC (5mC at 29) | 3160 |
| CTCAGTTCTGTGGGGTGGACTCCTGTCCACCCCACAGAACTGAGACACTC (5mC at 30) | 1880 |
| GAGGCCTGTCGCGGTTGGCCTCCTGGCCAACCGCGACAGGCCTCACACTC (5mC at 10 32 34) | 1950 |
| GAGGCCTGTTCGGGTTGGCCTCCTGGCCAACCCGAACAGGCCTCACACTC | 1760 |
| CTCAGTTCTGTGGGATGGACTCCTGTCCATCCCACAGAACTGAGACACTC | 1940 |
| GAGGCCCAACCTCAACAGCCTCCTGGCTGTTGAGGTTGGGCCTCACACTC | 2030 |
| GAGGCCTGCCGCGGTTGGCCTCCTGGCCAACCGCGGCAGGCCTCACACTC | 2480 |
| GAGGCCCGTTGTGGTTGGCCTCCTGGCCAACCACAACGGGCCTCACACTC | 3230 |
| GAGGCCTGTTCTGGTTGGCCTCCTGGCCAACCAGAACAGGCCTCACACTC (5mC at 11) | 1770 |
| GAGGCCTGTTGTGCGTGGCCTCCTGGCCACGCACAACAGGCCTCACACTC (5mC at 14 30) | 1800 |
| GAGGCCTGTAGTGGTTGGCCTCCTGGCCAACCACTACAGGCCTCACACTC | 2020 |
| GAGGCCTCTTGCGGTTGGCCTCCTGGCCAACCGCAAGAGGCCTCACACTC | 5870 |
| GAGGCCCAACCGCAACAGCCTCCTGGCTGTTGCGGTTGGGCCTCACACTC (5mC at 10) | 1930 |
| GAGGCCTGTTGCGGTTCGCCTCCTGGCGAACCGCAACAGGCCTCACACTC (5mC at 17) | 3590 |
| GAGGCCCAACCGCAGCAGCCTCCTGGCTGCTGCGGTTGGGCCTCACACTC (5mC at 30) | 4890 |
| GAGGCCCGTCGCGGTTGGCCTCCTGGCCAACCGCGACGGGCCTCACACTC (5mC at 7 37) | 2640 |
| CTCAGTTCTCGGGGCTGGACTCCTGTCCAGCCCCGAGAACTGAGACACTC (5mC at 10) | 1770 |

Sample 5
Target: Interferon regulatory factor 7, full length, phosphomimetic (IRF7, Homo sapiens, UniProt Q92985, residues 1-503, S471D/S472D/S475D/S476D/S477D/S483D/S484D/S487D)
Chain of UniProt Q92985 (whole entry, unmodified, looked up): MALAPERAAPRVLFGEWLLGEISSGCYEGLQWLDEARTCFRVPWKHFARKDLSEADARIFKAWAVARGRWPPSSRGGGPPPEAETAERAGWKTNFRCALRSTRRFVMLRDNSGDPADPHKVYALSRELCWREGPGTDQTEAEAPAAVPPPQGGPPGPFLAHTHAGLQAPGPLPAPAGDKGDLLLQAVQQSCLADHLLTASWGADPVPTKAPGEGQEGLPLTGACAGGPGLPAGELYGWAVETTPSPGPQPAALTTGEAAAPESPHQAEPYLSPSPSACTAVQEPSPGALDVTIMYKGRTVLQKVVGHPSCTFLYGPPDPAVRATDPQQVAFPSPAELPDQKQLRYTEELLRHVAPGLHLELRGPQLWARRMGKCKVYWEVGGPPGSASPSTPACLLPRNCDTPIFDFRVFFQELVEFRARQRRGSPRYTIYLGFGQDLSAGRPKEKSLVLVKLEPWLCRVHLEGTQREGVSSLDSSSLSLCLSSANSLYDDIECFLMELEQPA
Technique: protein-binding microarray
Form: double-stranded DNA, one strand shown
Sample: in vitro
Concentration: 2200 nM top
Setting: 60-bp whole probe
With: salmon DNA 0.4 mg/ml
Baseline: random background probes
Direction: higher = stronger binding
Constant ends, left off below: GCCTAGCAC … GTCTTGATTCGCTTGACGCTGCTG
| Strand | fitted relative affinity [z-score] |
| --- | --- |
| TTAGGTTCGGGTTTCGGTTAGTGCTAG | 6.15 |
| GACCATCTCAGTATCGAGACGTGCTAG | 0.374 |
| GTCTTTGCAAAAGCTCCACCGTGCTAG | 0.713 |
| GGCGAACTGGGGACTGGAGACGTGCTA | -0.907 |
| TTAGGTCTCGAACTGGGTTAGTGCTAG | -0.0896 |
| GACGGACGGGGACTGGGGACGTGCTAG | -0.592 |
| CACGATATCGGGACTGGAGACGTGCTA | 0.0793 |
| CTACTTCTGTTTTTGCTTTCGTGCTAG | 5 |
| ACTGCATTCCCTTTCTCAACGTGCTAG | 3.3 |
| TTAGTTATCGGGACTGGGTTAGTGCTA | 0.17 |
| TCACATACTAATTTCCAACTGTGCTAG | 1.28 |
| GACGGTATACTTCTCCTGACGTGCTAG | 0.768 |
| TTAGGACTGCCTATCCTTTAGTGCTAG | 0.342 |
| GACGAACTCAGTTTCGAGACGTGCTAG | 3.34 |
| GACGGAATGCTTCTCCTGACGTGCTAG | 0.72 |

Sample 6
Target: MAFF, bZIP domain (human)
Technique: DHFR protein complementation
Sample: yeast
Setting: single substitutions, most at no-binding floor
Baseline: wild-type JUN-FOS pair
Direction: higher = stronger binding
Starting sequence: JUN, bZIP domain (human); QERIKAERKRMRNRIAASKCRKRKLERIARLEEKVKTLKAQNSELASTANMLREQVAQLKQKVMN; partner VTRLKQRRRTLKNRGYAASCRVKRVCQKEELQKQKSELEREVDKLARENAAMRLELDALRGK
| Substitution | binding fitness [natural log] |
| --- | --- |
| E32F | -1.53 |
| R53T | -1.45 |
| T37R | -1.39 |
| E33F | -1.33 |
| E54N | -1.43 |
| S43C | -1.4 |
| S47K | -1.49 |
| A57G | -1.36 |
| E33D | -1.48 |
| E33M | -1.56 |
| L38Q | -1.49 |
| S43T | -1.38 |

For quick reference, copied from above (sample 4):
| Strand | median fluorescence [a.u.] |
| --- | --- |
| GAGGCCCAACCGCAGCAGCCTCCTGGCTGCTGCGGTTGGGCCTCACACTC (5mC at 30) | 4890 |
| CTCAGTTCTGTGGGATGGACTCCTGTCCATCCCACAGAACTGAGACACTC | 1940 |
| GAGGCCTGTAGTGGTTGGCCTCCTGGCCAACCACTACAGGCCTCACACTC | 2020 |
| CTCAGTTCTCGGGGCTGGACTCCTGTCCAGCCCCGAGAACTGAGACACTC (5mC at 10) | 1770 |
| GAGGCCTGTTGCGGTGGGCCTCCTGGCCCACCGCAACAGGCCTCACACTC (5mC at 29) | 3160 |
| GAGGCCTGTTGTGCGTGGCCTCCTGGCCACGCACAACAGGCCTCACACTC (5mC at 14 30) | 1800 |
| GAGGCCTCTTGCGGTTGGCCTCCTGGCCAACCGCAAGAGGCCTCACACTC | 5870 |
| CTCAGTTCTGTGGGCTGGACTCCTGTCCAGCCCACAGAACTGAGACACTC (5mC at 32) | 1750 |
| GAGGCCTGTTCTGGTTGGCCTCCTGGCCAACCAGAACAGGCCTCACACTC (5mC at 11) | 1770 |
